Published values collected from several papers.
Lines come from different studies, so protocols differ. Numbers after ± are the reported error.
CNR1: Cannabinoid receptor 1 (CNR1, Homo sapiens, UniProt P21554)
Chain of UniProt P21554 (whole entry, looked up): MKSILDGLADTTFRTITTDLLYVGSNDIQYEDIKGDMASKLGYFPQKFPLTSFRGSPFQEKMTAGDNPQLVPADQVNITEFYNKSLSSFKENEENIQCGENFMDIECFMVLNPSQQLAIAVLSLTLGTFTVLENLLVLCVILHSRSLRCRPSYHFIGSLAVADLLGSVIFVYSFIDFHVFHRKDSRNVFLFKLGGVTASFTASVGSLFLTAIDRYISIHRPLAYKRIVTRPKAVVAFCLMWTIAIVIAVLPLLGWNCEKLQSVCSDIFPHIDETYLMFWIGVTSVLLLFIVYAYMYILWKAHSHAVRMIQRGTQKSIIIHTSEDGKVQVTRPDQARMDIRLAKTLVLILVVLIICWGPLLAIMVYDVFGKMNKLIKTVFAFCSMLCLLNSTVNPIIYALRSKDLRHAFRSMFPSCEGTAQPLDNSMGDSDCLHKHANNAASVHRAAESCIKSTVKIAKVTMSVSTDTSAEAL
SOST: Sclerostin (SOST, Homo sapiens, UniProt Q9BQB4)
Chain of UniProt Q9BQB4 (whole entry, looked up): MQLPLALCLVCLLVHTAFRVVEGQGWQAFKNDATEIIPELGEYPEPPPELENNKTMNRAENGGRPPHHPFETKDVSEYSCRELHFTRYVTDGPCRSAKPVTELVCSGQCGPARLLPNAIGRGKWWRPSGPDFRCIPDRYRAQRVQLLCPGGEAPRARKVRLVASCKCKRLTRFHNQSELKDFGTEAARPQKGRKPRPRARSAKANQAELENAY
Kir3.1/Kir3.4: Kir3.1/Kir3.4 (Homo sapiens, UniProt P48544+P48549)
Chain of UniProt P48549 (whole entry, looked up): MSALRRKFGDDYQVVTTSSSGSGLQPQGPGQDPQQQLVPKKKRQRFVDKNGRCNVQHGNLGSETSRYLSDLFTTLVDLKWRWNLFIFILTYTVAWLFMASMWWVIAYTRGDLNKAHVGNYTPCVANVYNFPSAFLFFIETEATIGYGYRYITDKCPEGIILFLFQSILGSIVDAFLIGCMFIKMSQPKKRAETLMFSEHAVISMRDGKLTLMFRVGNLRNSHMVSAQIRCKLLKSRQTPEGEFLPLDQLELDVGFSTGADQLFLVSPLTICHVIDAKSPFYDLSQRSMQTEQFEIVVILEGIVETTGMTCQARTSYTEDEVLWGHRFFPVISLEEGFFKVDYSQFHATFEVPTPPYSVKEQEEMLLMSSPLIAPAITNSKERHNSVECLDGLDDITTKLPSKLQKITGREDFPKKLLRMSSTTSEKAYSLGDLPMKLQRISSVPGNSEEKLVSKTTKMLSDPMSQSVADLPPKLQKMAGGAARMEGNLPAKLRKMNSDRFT
Chain of UniProt P48544 (whole entry, looked up): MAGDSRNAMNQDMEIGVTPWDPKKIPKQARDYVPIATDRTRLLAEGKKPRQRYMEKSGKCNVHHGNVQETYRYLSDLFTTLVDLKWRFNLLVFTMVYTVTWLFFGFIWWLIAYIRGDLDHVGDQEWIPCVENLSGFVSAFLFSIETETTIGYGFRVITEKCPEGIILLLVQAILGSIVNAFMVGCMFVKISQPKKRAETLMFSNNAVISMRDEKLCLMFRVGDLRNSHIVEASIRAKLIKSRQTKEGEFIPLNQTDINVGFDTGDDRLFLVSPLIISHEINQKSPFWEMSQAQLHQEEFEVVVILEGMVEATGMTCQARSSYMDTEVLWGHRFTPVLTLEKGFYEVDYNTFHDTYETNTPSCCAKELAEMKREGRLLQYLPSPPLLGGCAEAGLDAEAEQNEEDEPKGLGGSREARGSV
Chain of UniProt P46089 (whole entry, unmodified, looked up): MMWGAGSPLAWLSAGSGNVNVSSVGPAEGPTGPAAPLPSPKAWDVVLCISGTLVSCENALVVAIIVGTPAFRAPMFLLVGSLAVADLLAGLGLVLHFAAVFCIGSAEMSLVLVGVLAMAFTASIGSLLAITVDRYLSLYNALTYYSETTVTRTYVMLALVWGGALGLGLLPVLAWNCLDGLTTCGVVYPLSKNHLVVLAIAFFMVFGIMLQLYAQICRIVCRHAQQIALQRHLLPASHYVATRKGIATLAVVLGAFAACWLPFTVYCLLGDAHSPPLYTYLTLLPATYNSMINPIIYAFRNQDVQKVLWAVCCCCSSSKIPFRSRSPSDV
Chain of UniProt O75762 (whole entry, unmodified, looked up): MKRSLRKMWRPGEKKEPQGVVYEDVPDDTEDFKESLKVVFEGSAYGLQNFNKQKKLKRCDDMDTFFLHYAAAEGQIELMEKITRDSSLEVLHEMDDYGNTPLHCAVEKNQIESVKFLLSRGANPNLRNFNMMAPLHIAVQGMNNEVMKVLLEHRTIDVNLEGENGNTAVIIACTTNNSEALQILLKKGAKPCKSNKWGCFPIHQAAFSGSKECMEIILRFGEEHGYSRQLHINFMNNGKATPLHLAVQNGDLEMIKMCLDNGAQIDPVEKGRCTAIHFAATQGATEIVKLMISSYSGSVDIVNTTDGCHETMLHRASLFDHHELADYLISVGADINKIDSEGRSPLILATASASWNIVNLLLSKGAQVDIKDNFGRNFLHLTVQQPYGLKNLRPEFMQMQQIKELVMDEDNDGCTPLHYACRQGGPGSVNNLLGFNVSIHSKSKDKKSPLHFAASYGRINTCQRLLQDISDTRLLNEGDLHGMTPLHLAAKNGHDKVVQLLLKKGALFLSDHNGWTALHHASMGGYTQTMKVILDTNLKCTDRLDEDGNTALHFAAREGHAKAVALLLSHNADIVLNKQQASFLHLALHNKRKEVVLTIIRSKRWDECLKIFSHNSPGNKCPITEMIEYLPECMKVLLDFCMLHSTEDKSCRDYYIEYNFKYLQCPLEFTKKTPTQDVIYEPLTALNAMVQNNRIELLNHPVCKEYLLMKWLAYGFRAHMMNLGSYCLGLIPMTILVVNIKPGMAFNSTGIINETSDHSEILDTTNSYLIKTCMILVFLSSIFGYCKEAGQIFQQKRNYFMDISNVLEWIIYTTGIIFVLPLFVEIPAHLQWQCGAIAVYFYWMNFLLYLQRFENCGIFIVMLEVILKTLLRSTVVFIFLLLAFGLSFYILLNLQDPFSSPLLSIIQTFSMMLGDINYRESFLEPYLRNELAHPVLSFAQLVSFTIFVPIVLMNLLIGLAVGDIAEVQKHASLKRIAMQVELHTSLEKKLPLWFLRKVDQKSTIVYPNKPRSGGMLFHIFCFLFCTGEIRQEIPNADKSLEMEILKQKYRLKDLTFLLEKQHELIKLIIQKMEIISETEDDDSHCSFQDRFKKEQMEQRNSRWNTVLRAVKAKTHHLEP
Chain of UniProt Q12866 (whole entry, looked up): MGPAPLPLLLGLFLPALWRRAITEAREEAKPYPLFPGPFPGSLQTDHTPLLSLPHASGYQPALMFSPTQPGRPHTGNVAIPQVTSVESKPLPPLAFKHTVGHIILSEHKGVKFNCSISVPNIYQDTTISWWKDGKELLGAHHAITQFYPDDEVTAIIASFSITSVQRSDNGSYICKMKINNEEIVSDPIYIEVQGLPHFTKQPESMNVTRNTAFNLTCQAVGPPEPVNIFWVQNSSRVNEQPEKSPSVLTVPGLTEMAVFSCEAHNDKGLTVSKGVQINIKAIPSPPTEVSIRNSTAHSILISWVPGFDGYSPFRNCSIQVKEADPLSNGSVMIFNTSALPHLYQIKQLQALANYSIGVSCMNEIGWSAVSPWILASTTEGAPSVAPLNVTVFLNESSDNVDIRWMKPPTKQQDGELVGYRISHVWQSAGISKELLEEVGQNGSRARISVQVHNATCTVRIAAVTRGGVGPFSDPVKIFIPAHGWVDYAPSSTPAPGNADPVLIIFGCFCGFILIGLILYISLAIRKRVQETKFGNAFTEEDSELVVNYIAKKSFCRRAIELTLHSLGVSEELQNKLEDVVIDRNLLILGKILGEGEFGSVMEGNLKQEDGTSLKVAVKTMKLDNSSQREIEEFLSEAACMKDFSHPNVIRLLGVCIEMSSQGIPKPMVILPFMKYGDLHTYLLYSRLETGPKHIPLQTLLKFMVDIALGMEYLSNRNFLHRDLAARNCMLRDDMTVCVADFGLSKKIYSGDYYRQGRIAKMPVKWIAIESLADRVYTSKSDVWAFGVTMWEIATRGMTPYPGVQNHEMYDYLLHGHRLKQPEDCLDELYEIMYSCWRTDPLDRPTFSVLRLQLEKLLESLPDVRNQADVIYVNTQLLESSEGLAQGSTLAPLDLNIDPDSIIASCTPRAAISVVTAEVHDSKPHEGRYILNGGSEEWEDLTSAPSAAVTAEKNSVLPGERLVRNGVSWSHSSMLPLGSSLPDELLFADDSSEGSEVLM
Chain of UniProt Q92847 (whole entry, unmodified, looked up): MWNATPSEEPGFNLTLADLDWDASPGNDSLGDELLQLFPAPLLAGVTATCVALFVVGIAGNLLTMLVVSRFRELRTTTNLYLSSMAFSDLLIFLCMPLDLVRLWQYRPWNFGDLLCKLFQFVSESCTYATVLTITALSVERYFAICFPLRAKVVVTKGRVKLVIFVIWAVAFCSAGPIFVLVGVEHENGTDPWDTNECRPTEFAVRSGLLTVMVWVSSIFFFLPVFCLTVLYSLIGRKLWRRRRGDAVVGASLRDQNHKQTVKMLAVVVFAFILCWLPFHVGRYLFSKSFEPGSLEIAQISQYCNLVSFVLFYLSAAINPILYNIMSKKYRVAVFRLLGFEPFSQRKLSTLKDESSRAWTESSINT
Chain of UniProt P0DMS8 (whole entry, unmodified, looked up): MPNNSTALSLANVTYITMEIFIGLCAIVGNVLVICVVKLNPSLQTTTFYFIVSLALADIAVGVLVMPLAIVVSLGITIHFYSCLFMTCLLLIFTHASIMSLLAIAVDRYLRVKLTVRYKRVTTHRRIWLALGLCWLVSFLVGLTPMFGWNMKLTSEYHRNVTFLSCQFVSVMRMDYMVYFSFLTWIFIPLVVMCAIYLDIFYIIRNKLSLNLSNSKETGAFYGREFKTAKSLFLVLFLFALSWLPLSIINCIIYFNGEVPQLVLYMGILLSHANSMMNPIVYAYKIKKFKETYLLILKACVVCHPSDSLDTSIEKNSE

With `CCOC(=O)C(CC)(CCCSCCCCCCNc1ccc([N+](=O)[O-])c2nonc12)NC(=O)c1ccc(C2CC2)c(Cc2ccc(F)cc2)n1` (stereo not shown) the EC50 was 928 nM (CNR1; cAMP, agonist).
With `CC(=O)N[C@@H]1[C@@H](O[C@@H]2O[C@H](C(=O)O)[C@@H](O[C@@H]3O[C@H](CO)[C@@H](OS(=O)(=O)O)[C@H](O[C@@H]4O[C@H](C(=O)O)[C@@H](OS(=O)(=O)O)[C@H](OS(=O)(=O)O)[C@H]4OS(=O)(=O)O)[C@H]3NC(C)=O)[C@H](OS(=O)(=O)O)[C@H]2OS(=O)(=O)O)[C@H](OS(=O)(=O)O)[C@@H](CO)O[C@H]1N=[N+]=[N-]` the EC50 was 6700 ± 1300 nM (SOST; fluorescence polarization competition; added: TAMRA-labelled probe).
For `CC(C)Oc1cc(Cl)ccc1CNc1cc(-c2ccccc2)nc2ncnn12`, the EC50 was 1280 nM (GPR3 (Homo sapiens, UniProt P46089, M156A); cAMP level, agonist, cAMP GloSensor; M156A mutant).
The EC50 of `O=C(COc1ccc(Cl)cc1Cl)Nc1cc(C2CC2)nn1C1CCOCC1` is reported as 560 nM (Kir3.1/Kir3.4; activator, thallium flux; HEK293).
`CCOC(=O)[C@](CC)(CCCSCCOCCOCCNC(=O)CCCCCN1C(=CC=CC=CC2=[N+](C)c3ccc4ccccc4c3C2(C)C)C(C)(C)c2c1ccc1ccccc21)NC(=O)c1ccc(C2CC2)c(Cc2ccc(F)cc2)n1` gave an EC50 of 726 nM (CNR1; cAMP, agonist).
`CCCC[C@H](NC(=O)CCCCCCCNC(=O)CN1CCN(CC(=O)O)CCN(CC(=O)O)CC1)C(=O)N[C@H]1CC(=O)NCCCC[C@@H](C(N)=O)NC(=O)[C@H](Cc2c[nH]c3ccccc23)NC(=O)[C@H](CCCNC(=N)N)NC(=O)[C@@H](Cc2ccccc2)NC(=O)[C@H](Cc2c[nH]cn2)NC1=O` [technetium-99m labelled] has a tissue uptake of 0.5 ± 0.11 %ID/g (C57 mouse, liver; intravenous, 0.037 MBq, 2 h).
With `Cc1nn(-c2cccc(N)c2)c(=O)c2cnc(Nc3ccc(N4CCNCC4)cc3)nc12` the IC50 was > 10000 nM (MERTK (Homo sapiens, UniProt Q12866); enzyme activity, inhibitor).
`Cn1c(=O)n(C2CCC(=O)NC2=O)c2ccc(C3CCN(CC(=O)Nc4cccc(CS(=O)(=O)N5CC[C@H](Nc6cccc(-c7sc(C(=O)O)c(OCC(=O)O)c7Cl)c6)CC5(C)C)c4)CC3)cc21` (stereo partly shown) has an EC50 of > 10000 nM (PTPN11 (Homo sapiens, UniProt Q06124); phosphatase activity; added: DiFMUP substrate).
`CCN(CC)CC(=O)Nc1cccc(-n2cc(-c3ccc4ccc(-c5cn(-c6cccc(NC(=O)CN(CC)CC)c6)nn5)cc4c3)nn2)c1` gave an IC50 of > 10000 nM (PIK3C3 (Homo sapiens, UniProt Q8NEB9); enzyme activity, inhibitor).
With `COc1ccc(C(=O)c2c(C(=O)NCCCN(C)C)oc3ccc(Cl)cc3c2=O)cc1OC` the EC50 was 447 nM (GHSR (Homo sapiens, UniProt Q92847, A204E); calcium mobilization; HEK293T, transiently transfected).
With `O=C(COc1cc(Cl)ccc1Cl)Nc1cc(C2CC2)nn1C1CCOCC1` the EC50 was 815 nM (Kir3.1/Kir3.4; activator, thallium flux; HEK293).
`C=C1CC[C@H](OCCCNC(=O)CCOCCOCCOCCOCCOCCOCCOCCOCCOCCOCCOCCOCCOCCOCCOCCOCCOCCOCCOCCOCCOCCOCCOCCOCCOCCOCCOCCOCCOCCOCCOCCOCCOCCOCCOCCOCCNC(=O)CCN2C(=O)CC(SC[C@H](NC(=O)[C@H](Cc3ccccc3)NC(=O)[C@H](CC(N)=O)NC(=O)[C@H](Cc3c[nH]cn3)NC(=O)[C@@H](NC(=O)[C@H](CC(=O)O)NC(=O)[C@H](CCC(N)=O)NC(=O)[C@H](CC(C)C)NC(=O)[C@H](CCCCN)NC(=O)[C@H](CCCCN)NC(=O)[C@H](CCCNC(=N)N)NC(=O)[C@H](CC(C)C)NC(=O)[C@H](Cc3c[nH]c4ccccc34)NC(=O)[C@H](CCC(=O)O)NC(=O)[C@@H](NC(=O)[C@H](CCCNC(=N)N)NC(=O)[C@H](CCC(=O)O)NC(=O)[C@H](CCSC)NC(=O)[C@H](CO)NC(=O)[C@H](CC(N)=O)NC(=O)[C@H](CC(C)C)NC(=O)[C@H](Cc3c[nH]cn3)NC(=O)[C@H](CCCCN)NC(=O)CNC(=O)[C@H](CC(C)C)NC(=O)[C@H](CC(N)=O)NC(=O)[C@H](Cc3c[nH]cn3)NC(=O)[C@H](CCSC)NC(=O)[C@H](CC(C)C)NC(=O)[C@H](CCC(N)=O)NC(=O)[C@@H](NC(=O)[C@H](CCC(=O)O)NC(=O)[C@H](CO)NC(=O)[C@@H](NC(=O)[C@@H](N)CO)C(C)C)[C@@H](C)CC)C(C)C)C(C)C)C(=O)O)C2=O)C/C1=C/C=C1\CCC[C@]2(C)[C@@H]([C@H](C)CCCC(C)(C)O)CC[C@@H]12` (stereo partly shown) gave a clearance of 0.122 mL/min/kg (male cynomolgus monkey, plasma; intravenous, 0.02 mg/kg, single dose).
With `CCc1cc(NC(=O)COc2cc(Cl)ccc2Cl)n(CC(F)(F)F)n1` the EC50 was 1060 nM (Kir3.1/Kir3.4; activator, thallium flux; HEK293).
`COC1CN([C@H]2CC[C@H]([C@@]3(C)Oc4c(Cl)cc(C(=O)NCc5c(SC)cc(C)[nH]c5=O)c(C)c4O3)CC2)C1` — result for “log2 fold change”: 0.513 (RNA-seq, item: PURA mouse homolog; mouse, HT-1376 xenograft, whole blood; dose not given; relative to: vehicle).
With `O=C1C[C@H](c2nc(-c3ccc(F)c4cn[nH]c34)no2)CCCN1c1ccc(F)cc1` (racemic) the EC50 was 794 nM (CNR2 (Homo sapiens, UniProt P34972, F87A); cAMP, agonist, luciferase).
For `CC(=O)N[C@@H]1[C@@H](O[C@@H]2O[C@H](C(=O)O)[C@@H](O[C@@H]3O[C@H](COS(=O)(=O)O)[C@@H](OS(=O)(=O)O)[C@H](O[C@@H]4O[C@H](C(=O)O)[C@@H](OS(=O)(=O)O)[C@H](OS(=O)(=O)O)[C@H]4OS(=O)(=O)O)[C@H]3NC(C)=O)[C@H](OS(=O)(=O)O)[C@H]2OS(=O)(=O)O)[C@H](OS(=O)(=O)O)[C@@H](COS(=O)(=O)O)O[C@H]1n1ccnn1`, the EC50 was 9940 ± 880 nM (SOST; fluorescence polarization competition; added: TAMRA-labelled probe).
`C=CC(=O)Nc1cccc(Cn2ncc3cnc(Nc4cnn(CCOC)c4)nc32)c1` — result for “percent of control”: 81% (SIK2 human; binding, KINOMEscan; 100 nM; lower = stronger binding).
`Cc1cccc(-c2ccc(C3C(CO)N4CCCCN(S(=O)(=O)c5ccccc5C)CC34)cc2)c1` (stereo not shown) gave an EC50 of 190 nM (IDE (Homo sapiens, UniProt P14735); inhibitor).
`CCN(CC)C(CO)c1cccc2c(C)c(C)oc12` (stereo not shown) gave an EC50 of 2.29 nM (LPAR1 (Homo sapiens, UniProt Q92633); Gi activation, agonist, NanoBiT G-protein dissociation; HEK293T).
For `CC(=O)N[C@@H]1[C@@H](O[C@@H]2O[C@H](C(=O)O)[C@@H](O[C@@H]3O[C@H](COS(=O)(=O)O)[C@@H](O)[C@H](O[C@@H]4O[C@H](C(=O)O)[C@@H](O)[C@H](O)[C@H]4O)[C@H]3NC(C)=O)[C@H](O)[C@H]2O)[C@H](O)[C@@H](COS(=O)(=O)O)O[C@H]1N=[N+]=[N-]`, the EC50 was 250000 ± 29100 nM (SOST; fluorescence polarization competition; corrected value, added: TAMRA-labelled probe).
For `Cc1ncsc1-c1ccc(C(C)NC(=O)C2CC(O)CN2C(=O)C(NC(=O)CCCCCCCCCCN2CCCC(Nc3ncc(Cl)c(Nc4ccccc4S(=O)(=O)C(C)C)n3)C2)C(C)(C)C)cc1` (stereo not shown), “log2 fold change” read -1.68 (22Rv1; RNA-seq, item: ZFP62 mRNA; concentration not given; relative to: DMSO).
`Cc1sc2c(c1C)C(c1ccc(Cl)cc1)=N[C@@H](CC(=O)NCC(=O)N1CCC3(CCC(C(=O)N4CCN(C(=O)c5cc(Cc6n[nH]c(=O)c7ccccc67)ccc5F)CC4)CC3)CC1)c1nnc(C)n1-2` has an EC50 of 42 nM (PARP1 (Homo sapiens, UniProt P09874); target engagement in cells, BRET).
`CCOC(=O)CN1C(=O)/C(=C\c2ccc(OC)cc2)N=C1c1ccccc1` has an EC50 of > 28700 nM (Microtubule-associated protein tau, phosphorylated (MAPT, Homo sapiens, UniProt P10636); tau aggregation cytotoxicity, 10-point dose response).
For `CNS(=O)(=O)Nc1nccc(Cc2c(C)c3ccc(Oc4ncccc4F)cc3oc2=O)c1F`, the IC50 was 521 nM (RERF-LC-MS; cell viability, CellTiter-Glo; 7 days).
The EC50 of `CC1=NC(C)C(C)S1` (stereo not shown) is reported as 105000 ± 20000 nM (uncharacterized protein (Vulpes vulpes, UniProt A0A3Q7SVK8); cAMP, agonist; HEK293 transfected with uncharacterized protein).
The EC50 of `CS[C@@H]1O[C@H](COS(=O)(=O)O)[C@@H](OS(=O)(=O)O)[C@H](O[C@@H]2O[C@H](C(=O)O)[C@@H](O[C@@H]3O[C@H](COS(=O)(=O)O)[C@@H](OS(=O)(=O)O)[C@H](O[C@@H]4O[C@H](C(=O)O)[C@@H](OS(=O)(=O)O)[C@H](OS(=O)(=O)O)[C@H]4OS(=O)(=O)O)[C@H]3NC(C)=O)[C@H](OS(=O)(=O)O)[C@H]2OS(=O)(=O)O)[C@H]1NC(C)=O` is reported as 11300 ± 1090 nM (SOST; fluorescence polarization competition; added: TAMRA-labelled probe).
`CN1CCCNC(=O)c2cccc(c2)C(=O)NCCCN(C)CCCNc2cccc3c2C(=O)c2cccc(c2C3=O)NCCC1` — result for “log2 fold change”: -1.03 (SAS; RNA-Seq, item: RAB35 mRNA; 1 µM, 6 h; relative to: untreated cells).
`CNc1ncnc2c1ncn2C1OC(CO)C(O)C1O` (stereo not shown) gave an EC50 of 2500 nM (ADORA3 (Homo sapiens, UniProt P0DMS8, V169E); G protein activation, agonist).
With `CC(=O)N[C@@H]1[C@@H](O[C@@H]2O[C@H](C(=O)O)[C@@H](O[C@@H]3O[C@H](COS(=O)(=O)O)[C@@H](OS(=O)(=O)O)[C@H](O[C@@H]4O[C@H](C(=O)O)[C@@H](O[C@@H]5O[C@H](COS(=O)(=O)O)[C@@H](OS(=O)(=O)O)[C@H](O[C@@H]6O[C@H](C(=O)O)[C@@H](OS(=O)(=O)O)[C@H](OS(=O)(=O)O)[C@H]6OS(=O)(=O)O)[C@H]5NC(C)=O)[C@H](OS(=O)(=O)O)[C@H]4OS(=O)(=O)O)[C@H]3NC(C)=O)[C@H](OS(=O)(=O)O)[C@H]2OS(=O)(=O)O)[C@H](OS(=O)(=O)O)[C@@H](COS(=O)(=O)O)O[C@H]1N=[N+]=[N-]` the EC50 was 609 ± 177 nM (SOST; fluorescence polarization competition; corrected value, added: TAMRA-labelled probe).
`Cn1ncc2cc(CN3CCC(F)(F)C(COc4ccc(F)cc4)C3)ccc21` (stereo not shown) has a Ki of 1 nM (DRD4 (Homo sapiens, UniProt P21917); binding, radioligand displacement; HEK293 cell membranes; WuXi AppTec, added: [3H]N-methylspiperone).
For `Nc1ncc(-c2cc(-c3cnn(CC(F)(F)F)c3)ncc2F)nc1C(=O)NC1CNCC(F)C1` (stereo not shown), the remaining binding was 74% (VEGFR2; KINOMEscan competition binding; 1 µM; relative to: DMSO control).
`Nc1ncnc2c1ncn2[C@@H]1O[C@H](COP(=O)(O)OP(=O)(O)OC[C@H]2OC(O)[C@H](O)[C@@H]2O)[C@@H](O)[C@H]1OP(=O)(O)O` (stereo partly shown) gave an EC50 of 84 ± 5 nM (TRPM2 (Nematostella vectensis, UniProt A7T1N0, T702C); agonist).
The EC50 of `CC(=O)N[C@@H]1[C@@H](O[C@@H]2O[C@H](C(=O)O)[C@@H](OS(=O)(=O)O)[C@H](OS(=O)(=O)O)[C@H]2OS(=O)(=O)O)[C@H](OS(=O)(=O)O)[C@@H](COS(=O)(=O)O)O[C@H]1N=[N+]=[N-]` is reported as 110000 ± 28700 nM (SOST; fluorescence polarization competition; added: TAMRA-labelled probe).
With `O=C(NC[C@@H](Cc1ccc(F)cc1)N1CCC(O)(C(F)(F)F)CC1)C1(c2ccc(Cl)cc2)CCCC1` the EC50 was 20 nM (TRPA1 (Homo sapiens, UniProt O75762, F938A)).
